Measured values from different studies.
Parts stem from different laboratories: compare values within a part only. Changes are numbered by the printed parent chain.

Block 1 — technique: DHFR PCA, deep sequencing; matrix: yeast; with: (+)-ABA 1.4 µM; reference: wild-type fitted maximum; reading: higher = stronger binding
Target: ABI1, truncated, D143A, DHFR fusion (Arabidopsis thaliana)
Setting: methotrexate growth selection, single substitutions
Starting sequence: PYL1, truncated, DHFR fusion (Arabidopsis thaliana); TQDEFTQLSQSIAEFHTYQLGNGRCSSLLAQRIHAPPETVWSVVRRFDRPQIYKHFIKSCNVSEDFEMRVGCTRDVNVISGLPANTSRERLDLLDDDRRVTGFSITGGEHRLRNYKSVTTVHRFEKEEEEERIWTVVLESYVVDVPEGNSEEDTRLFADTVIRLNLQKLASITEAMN
| Variant | relative binding score |
| --- | --- |
| R46C | 14.1% |
| V70Y | -3.24% |
| R69V | 63.9% |
| Q2N | 59.4% |
| R49C | 51.6% |
| D48Y | -11.5% |
| R163G | 30.9% |
| E128M | 50.6% |
| P146R | -1.33% |
| F15A | -1.57% |
| C25H | -3% |
| L28R | 22.8% |
| C60N | -14.7% |
| F103G | -4.87% |
| H122V | 0.993% |
| T1W | 60.3% |
| P83R | 3.75% |
| R45Y | -11.8% |
| E67K | 48.7% |
| V40E | -6.91% |
| T6L | 48.7% |
| V78T | 17.6% |
| P146S | 0.115% |

Block 2 — target: CCNE1, cyclin fold, Cln2 fusion (human); technique: yeast growth competition, sequencing; matrix: yeast; setting: strong parent motif; reference: not given; reading: higher = stronger binding
Starting sequence: CDKN1A docking peptide (human); SKACRRLFGPVDS
| Variant | normalised enrichment score |
| --- | --- |
| SKACARLFGPVDS [R5A] | 0.445 |
| SKACRRLRGPVDS [F8R] | -0.013 |
| SKACRRLDGPVDS [F8D] | 0.225 |
| SKHCRRLFGPVDS [A3H] | 3.1 |
| SKACRRLAGPVDS [F8A] | -0.0224 |
| SKAYRRLFGPVDS [C4Y] | 0.0681 |
| SKACRRLFGPTDS [V11T] | 6.14 |
| SDACRRLFGPVDS [K2D] | 4.92 |
| SKACRWLFGPVDS [R6W] | 2 |
| SKACRRLFCPVDS [G9C] | 5.09 |
| SKACRRLYGPVDS [F8Y] | 0.939 |
| SKACRDLFGPVDS [R6D] | 1.46 |
| SKACRRLFGPVLS [D12L] | 3.65 |
| SKACRRLFPPVDS [G9P] | 5.7 |
| SKACRQLFGPVDS [R6Q] | 5.33 |
| AKACRRLFGPVDS [S1A] | 4.93 |
| SKAIRRLFGPVDS [C4I] | 2.78 |
| SKACRRLFDPVDS [G9D] | 5.89 |
| SKACRVLFGPVDS [R6V] | 5.53 |
| SKACRRLFGPVFS [D12F] | 3.28 |

Block 3 — technique: competition protein-binding microarray; molecule type: double-stranded DNA, one strand shown; matrix: in vitro; tested at: 2 µM; with: Pho4 competitor, 0.05 µM; reading: higher = stronger binding
Target: Centromere-binding protein 1, full length, His-tagged (CBF1, Saccharomyces cerevisiae, UniProt P17106, residues 1-351)
Sequence of UniProt P17106 (whole entry, looked up): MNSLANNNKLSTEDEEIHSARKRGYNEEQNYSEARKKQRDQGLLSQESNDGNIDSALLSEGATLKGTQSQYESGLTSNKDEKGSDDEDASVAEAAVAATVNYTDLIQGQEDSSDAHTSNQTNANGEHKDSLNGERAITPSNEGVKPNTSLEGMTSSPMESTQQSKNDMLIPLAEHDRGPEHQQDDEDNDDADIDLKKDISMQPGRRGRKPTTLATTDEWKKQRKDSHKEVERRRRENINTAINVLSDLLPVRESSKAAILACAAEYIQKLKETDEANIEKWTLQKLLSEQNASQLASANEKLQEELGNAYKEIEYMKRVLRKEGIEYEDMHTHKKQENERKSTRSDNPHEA
Setting: whole 60-bp probe, lowest competitor level
| Sequence | fluorescence intensity [a.u.] |
| --- | --- |
| GTCTTGTCTCATTTTCACGTGGCTTTCCCCACTTCAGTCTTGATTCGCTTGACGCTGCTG | 671 |
| TATTTAATGCGACAGGTGGAAATCAGGACTATGCAGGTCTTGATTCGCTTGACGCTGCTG | 81.6 |
| CGTCCTAGTGATTGGACCGTGGGTGCCATGAGGAAGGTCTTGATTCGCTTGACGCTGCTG | 64.3 |
| CTGATGTCTGTTTTCAACATGATGTCCAATGGTGCCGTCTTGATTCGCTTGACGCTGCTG | 82.1 |
| AAAGCGGTAATTTGGTGCGTGGGTGCAGATATCTATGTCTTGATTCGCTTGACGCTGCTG | 72.1 |
| TGCGCAACAACTTGCGGGGTGGGTGTATGTCTAGAAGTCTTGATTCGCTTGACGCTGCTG | 70.5 |
| TTAGATGACTGTTAGCACGTAATGATTTGGCCATGAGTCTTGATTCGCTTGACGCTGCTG | 77.8 |
| GTAACTTGGCGCTCTCTCGTGCCAGTGGTGATTTTGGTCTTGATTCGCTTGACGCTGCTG | 64.9 |
| CATACCCAACCTTGTCACAGCACTTAAGATATTTGTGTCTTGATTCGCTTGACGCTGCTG | 87.4 |
| AAATTACTAAGTTGGACAGTGGGTGACGCCGTATGAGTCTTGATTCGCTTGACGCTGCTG | 63.9 |
| TTCAAGAAAAATCCACGCGTGTGGACCTTTTTTTTCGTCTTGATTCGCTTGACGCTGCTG | 79.7 |
| CCTCGGAAAAACCTCCACGTGTTGGGTTATTCCGCCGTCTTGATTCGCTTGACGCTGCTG | 1230 |
| TTCAACGCATTGAGACACATGGCTAACTACCCAGTAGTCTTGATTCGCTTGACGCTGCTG | 79.1 |
| CTTTCCCGATCTTTTCACGTGTATTTAGCACATTTGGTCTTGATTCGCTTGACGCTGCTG | 833 |
| CTTCTGTAAATTTGTCACGGTACTTGACGCGCCCCGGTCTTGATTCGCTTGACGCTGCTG | 193 |
| ACAGCGAGGCCATTGCACGTGCAAATAAATTGAATCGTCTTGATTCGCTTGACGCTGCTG | 3520 |
| AGAAAGAAAGACGACCACGTGACGGGAACGAAGAGCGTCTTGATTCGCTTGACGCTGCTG | 7240 |
| ACAAAAATGACGGAACTCGTGACTCGAGTCAAAAGCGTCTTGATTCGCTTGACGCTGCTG | 710 |
| CTCCGGCGGCCATTTTACGTGACGGAGCATCCCTTAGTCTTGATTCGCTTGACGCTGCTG | 61.8 |
| CATACCCAACCTTGTCACCCGACTTAAGATATTTGTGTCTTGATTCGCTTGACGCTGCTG | 84 |
| GGCCGCTCAAGGGAGCACGTGACCTCGGCCTCTGGCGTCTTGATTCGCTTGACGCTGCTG | 16800 |
| AAAGCGGTAATTTGACCGGTGGGTGCAGATATCTATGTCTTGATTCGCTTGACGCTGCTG | 57 |
| AAAAAGTAAAGTTAGCACGTGATGGTTTAGAAAATCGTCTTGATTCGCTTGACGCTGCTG | 7360 |
| CCATTGTACGGTTCGTACGTGGGTACAATGAATTACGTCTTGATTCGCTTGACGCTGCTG | 71.9 |
| GTCTTGTCTCATTGACTGGTGGGTGTCCCCACTTCAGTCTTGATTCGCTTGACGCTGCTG | 87.6 |

Block 4 — technique: RNA Bind-n-Seq; molecule type: RNA; matrix: in vitro; tested at: not given; reference: input RNA pool; reading: higher = stronger binding
Target: RING finger protein unkempt homolog, zinc fingers 1-6, GST-SBP tag (UNK, Homo sapiens, UniProt Q9C0B0, residues 30-357)
Sequence of UniProt Q9C0B0 (30-357, looked up): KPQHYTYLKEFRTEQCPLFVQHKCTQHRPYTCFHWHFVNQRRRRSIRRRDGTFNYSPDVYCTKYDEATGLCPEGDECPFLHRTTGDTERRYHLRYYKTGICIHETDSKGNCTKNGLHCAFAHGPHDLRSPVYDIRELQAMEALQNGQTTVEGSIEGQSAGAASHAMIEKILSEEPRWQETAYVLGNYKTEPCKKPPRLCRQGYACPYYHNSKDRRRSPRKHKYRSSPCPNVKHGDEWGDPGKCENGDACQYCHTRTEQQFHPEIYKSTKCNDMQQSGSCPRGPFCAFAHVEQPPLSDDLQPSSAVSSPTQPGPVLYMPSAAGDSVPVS
Setting: RNA with constant flanks, human-mouse chimeric sites, ends assumed
| Sequence | bound/input enrichment [ratio] |
| --- | --- |
| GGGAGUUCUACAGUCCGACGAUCAAAGAGAAUGGAGAUGUAAAGAUUUUGCUGAAAAGUGGGAAGGAGAAACCAAAAACAAAUAUAGAAGACUUACAAAUUAAAAAAGUAAAGAAGAAAAAGAAAAAGAAACACAAAGAGAAUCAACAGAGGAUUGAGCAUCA | 13.2 |
| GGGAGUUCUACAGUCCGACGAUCAGAAUCUUGGGACUGUUUUACUUAAUUGGUCAUUGAUAGCUUAACAAACAUGGAGAUAAGAUUAGAAAUCUUGACAUCAACAAGUAUUAAGCAGAAAAAACCCUGGCCACGUGUCUCCUGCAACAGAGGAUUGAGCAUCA | 0.13 |
| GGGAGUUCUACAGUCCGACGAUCAUCCAGUACUCGAAUCACAAAGAACUAAAGACAGAUAAUACAUUAAACCAACGUGCGCAGGCAGUUCUUCAAGCUGUGACAGCUGUCCAGACAGCAAAUACUCCUCUUAGUGGCACCACACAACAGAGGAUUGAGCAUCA | 0.393 |
| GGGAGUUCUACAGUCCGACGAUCCUGUGACCACAAGAUCCUGAAGUUUGAGCAGCUGAAGUUGACUCCCUCUCCUUGCCUGAACCCCCCCCCACUGCCCCCCCAUCCCCCAGUGUCGGCUGAGAUGUUGCCAGCAGACAGUUCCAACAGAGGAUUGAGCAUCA | 1.32 |
| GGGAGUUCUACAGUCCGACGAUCGUAAUGGACGUCAACACUGCUUUACAAGAGGUGCUGAAGACUGCCCUCAUCCACGAUGGCCUAGCACGUGGCAUACGCGAAGCUGCCAAAGCCUUAGACAAGCGCCAAGCCCAUCUGUGUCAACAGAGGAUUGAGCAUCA | 0.14 |
| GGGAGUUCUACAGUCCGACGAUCACCAUUUUCGCGGUUCAGGCUUUGUGUGUAGUUCACUCUAUGUAUUAAAUUAUUAUUCUGCUUAGCUUAUAAUAAGGAUAAUUGCAUGAUUUAAGUAUACUGAAUGUUACUCUGAAACUUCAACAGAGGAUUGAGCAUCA | 0.513 |
| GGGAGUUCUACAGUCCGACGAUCGCUCCUCCCCGCUCUGCAGCCUGGGGACACUGGGCUGCAUUUUUUUUCCAGCUUUCUUUUAAAACUCUCAGUGUAACUGUAUCCCGUGACAUUUCAUUUUUUUUAAAAGAAAAAAACUUUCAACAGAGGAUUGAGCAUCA | 0.26 |
| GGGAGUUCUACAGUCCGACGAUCGUUCGGCUCUGGGAUCAUGCCACAAUGACAGAAGUGAAAUCUCUGAAUUUUAAUAUGUCUGUUAGUAGCAUGGAGUAUAUUCCUGAGGGAGAGAUUUUGGUUAUUACUUAUGGACGAUCUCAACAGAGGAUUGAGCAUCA | 0.405 |
| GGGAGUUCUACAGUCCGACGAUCAUUGUUGAAGCUAACCCACUUUUAGAAGCAUUUGGAAAUGCAAAGACUGUUCGCAACAAUAAUAGCAGUCGAUUUGGAAAAUUUGUAGAAAUUCAUUUCAAUGAAAAGAGCUCAGUUGUUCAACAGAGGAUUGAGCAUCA | 0.563 |
| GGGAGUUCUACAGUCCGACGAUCCUGUGACCACAAGAUCCUACCUGAGUGGCAGCUGAAGUUGACUCCCUCUCCUUGCCUGCCUAGUUUCCCACUGCCCCCCCAUCCCCCAGUGUCGGCUGAGAUGUUGCCUCUGCACGGUUCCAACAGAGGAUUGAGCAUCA | 2.11 |
| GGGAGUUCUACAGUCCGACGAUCACCAUUUUCGCGGUUCAGGCUUUGUGUGUAGUUCACUUACGGUAUUAAAUUAUUAUUCUGCUUAGCUUAAAGUAAGGAUAAUUGCAUUUAAAGAGGUUACUGAAUGUUACUCUGAAACUUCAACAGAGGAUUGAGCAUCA | 0.299 |

Excerpt of the above (block 1):
| Variant | relative binding score |
| --- | --- |
| C60N | -14.7% |
| F103G | -4.87% |
| H122V | 0.993% |
| T1W | 60.3% |
| P83R | 3.75% |
| R45Y | -11.8% |
| E67K | 48.7% |
| V40E | -6.91% |
| T6L | 48.7% |
| V78T | 17.6% |
| P146S | 0.115% |
